# Assay results gathered from unrelated publications.
# Numbered parts are unrelated; each lists some results of a single study. Positions count from the first letter of the parent shown.
# Sequence of UniProt P16591 (whole entry, looked up): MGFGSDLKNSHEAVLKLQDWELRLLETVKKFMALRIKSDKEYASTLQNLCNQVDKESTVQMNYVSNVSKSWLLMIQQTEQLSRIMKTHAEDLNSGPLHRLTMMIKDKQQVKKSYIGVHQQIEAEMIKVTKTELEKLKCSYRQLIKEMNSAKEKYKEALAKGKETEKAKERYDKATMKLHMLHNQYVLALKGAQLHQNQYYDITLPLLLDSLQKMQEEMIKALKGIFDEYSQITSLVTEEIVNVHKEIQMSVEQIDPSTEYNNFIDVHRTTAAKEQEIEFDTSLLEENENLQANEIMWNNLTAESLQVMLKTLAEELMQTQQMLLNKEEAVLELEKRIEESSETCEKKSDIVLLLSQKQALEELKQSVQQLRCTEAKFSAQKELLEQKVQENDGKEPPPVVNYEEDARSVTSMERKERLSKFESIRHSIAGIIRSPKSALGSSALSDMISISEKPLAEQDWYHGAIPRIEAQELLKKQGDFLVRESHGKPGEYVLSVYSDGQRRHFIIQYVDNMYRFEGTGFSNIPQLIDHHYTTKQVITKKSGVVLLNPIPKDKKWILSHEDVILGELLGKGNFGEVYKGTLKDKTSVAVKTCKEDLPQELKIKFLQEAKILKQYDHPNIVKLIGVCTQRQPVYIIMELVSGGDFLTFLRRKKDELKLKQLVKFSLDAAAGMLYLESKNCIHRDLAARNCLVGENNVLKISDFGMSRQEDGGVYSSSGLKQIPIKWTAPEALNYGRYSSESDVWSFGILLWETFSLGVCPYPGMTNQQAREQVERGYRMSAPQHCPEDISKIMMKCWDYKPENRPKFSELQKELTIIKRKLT

# Block 1
# Target: Ras GTPase-activating protein-binding protein 1, RRM domain (G3BP1, Homo sapiens, UniProt Q13283)
# Sequence of UniProt Q13283 (whole entry, looked up): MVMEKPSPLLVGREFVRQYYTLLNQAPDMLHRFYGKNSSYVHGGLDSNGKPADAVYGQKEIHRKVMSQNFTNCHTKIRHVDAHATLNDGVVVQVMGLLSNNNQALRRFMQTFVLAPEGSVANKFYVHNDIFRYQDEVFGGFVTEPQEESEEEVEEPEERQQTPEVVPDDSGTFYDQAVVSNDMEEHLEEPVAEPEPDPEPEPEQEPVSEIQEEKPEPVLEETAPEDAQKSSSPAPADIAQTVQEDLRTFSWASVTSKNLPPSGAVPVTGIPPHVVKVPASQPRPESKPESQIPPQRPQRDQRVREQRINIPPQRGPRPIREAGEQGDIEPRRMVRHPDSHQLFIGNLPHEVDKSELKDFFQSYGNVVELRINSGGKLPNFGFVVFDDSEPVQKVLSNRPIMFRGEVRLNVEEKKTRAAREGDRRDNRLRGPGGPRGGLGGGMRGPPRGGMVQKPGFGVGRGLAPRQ
# Technique: RNA Bind-n-Seq
# Molecule type: RNA
# Matrix: in vitro
# Tested at: 1 µM
# Setting: whole 134-nt RNA, ends assumed
# Together with: 150 mM KCl
# Baseline: input library
# Reading: higher = stronger binding
Strand,log2 enrichment
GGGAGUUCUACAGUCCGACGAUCCCUGUGCUACACAUCGUAUGUACCGAAUCAAAUUUUUUUAAACCCCCAAAUUUUUUUAAAAAAGUAUUAUGUUACGCCGUUCGGAUCUGCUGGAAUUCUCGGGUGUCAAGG,-0.959
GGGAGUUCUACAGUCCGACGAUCAGUCCUGUGCUACACAUCGUAUGUACCGAAUCGGGUUUUUGGGUGGGUUUUUUUGGGAAAGUAUUAUGUUACGCCGUUCGGAUCUGCACUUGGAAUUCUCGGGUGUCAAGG,0.323
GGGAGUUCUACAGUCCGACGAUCAAGUCCUGUGCUACACAUCGUAUGUACCGAAUCGGCCCCCGGCCCCCGGCCCCCGGAAAGUAUUAUGUUACGCCGUUCGGAUCUGCACUUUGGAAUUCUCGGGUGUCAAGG,-0.627
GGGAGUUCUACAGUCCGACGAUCUCCUGUGCUACACAUCGUAUGUACCGAAUCGGGGCCCCCGGGGCCCCCGGGGCCCCCGGGAAAGUAUUAUGUUACGCCGUUCGGAUCUGCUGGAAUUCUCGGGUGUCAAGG,-0.804
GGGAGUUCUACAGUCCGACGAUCCAAGUCCUGUGCUACACAUCGUAUGUACCGAAUCGGGUUUGGGAAAGGGAAAGGGAAAGUAUUAUGUUACGCCGUUCGGAUCUGCACUUCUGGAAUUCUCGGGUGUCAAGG,0.664
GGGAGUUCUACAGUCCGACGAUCGCAGGAAGUAAAAACAAAUGGAAAUGCUUCGGAUAGUGGCAGGGGUGGGGGUUGCUAAGGAAAGGGUGAAAUGGGAGUGGGUAAAGAGUUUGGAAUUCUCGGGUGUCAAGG,0.937
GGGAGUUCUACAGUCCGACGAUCAGUCCUGUGCUACACAUCGUAUGUACCGAAUCGGUUUUUGGUUUUUGGAAAAAAAGGAAAGUAUUAUGUUACGCCGUUCGGAUCUGCACUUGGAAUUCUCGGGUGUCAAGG,-0.0442
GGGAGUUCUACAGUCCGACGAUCCCUGUGCUACACAUCGUAUGUACCGAAUCGGAAAAAAAGGGGAAAAAAAGGAAAAAAAGGGAAAGUAUUAUGUUACGCCGUUCGGAUCUGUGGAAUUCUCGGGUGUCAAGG,0.0687

# Block 2
# Target: CCNA2, cyclin fold, Cln2 fusion (human)
# Technique: yeast growth competition, sequencing
# Matrix: yeast
# Setting: strong parent motif
# Baseline: not given
# Reading: higher = stronger binding
# Parent: INSM1 docking peptide (human); PKAIRKLHFEDEV; partner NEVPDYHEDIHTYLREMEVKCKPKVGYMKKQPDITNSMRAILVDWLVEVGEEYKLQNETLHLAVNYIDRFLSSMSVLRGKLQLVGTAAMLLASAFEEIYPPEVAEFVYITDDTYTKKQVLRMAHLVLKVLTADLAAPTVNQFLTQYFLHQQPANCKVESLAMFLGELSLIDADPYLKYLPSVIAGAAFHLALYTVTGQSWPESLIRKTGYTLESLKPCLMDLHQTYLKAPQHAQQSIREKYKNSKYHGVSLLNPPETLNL
Substitution,normalised enrichment score
PKAIRKLHFEDHV [E12H],5.16
PKAIRDLHFEDEV [K6D],0.181
PKAARKLHFEDEV [I4A],6.1
PKAIRKLHPEDEV [F9P],0.549
PKAIRKLHFEGEV [D11G],4.89
PKAIIKLHFEDEV [R5I],0.835
PKAIYKLHFEDEV [R5Y],0.525
PKAIRKRHFEDEV [L7R],0.549

# Block 3
# Target: Protein C-ets-1 (ETS1, Homo sapiens, UniProt P14921, residues 1-441, K379A, full length assumed)
# Technique: protein-binding microarray
# Molecule type: double-stranded DNA, one strand shown
# Matrix: in vitro
# Tested at: not given
# Setting: k-mer, scored over probes, only values ≥0.25
# Reading: higher = stronger binding
# Residues (chain): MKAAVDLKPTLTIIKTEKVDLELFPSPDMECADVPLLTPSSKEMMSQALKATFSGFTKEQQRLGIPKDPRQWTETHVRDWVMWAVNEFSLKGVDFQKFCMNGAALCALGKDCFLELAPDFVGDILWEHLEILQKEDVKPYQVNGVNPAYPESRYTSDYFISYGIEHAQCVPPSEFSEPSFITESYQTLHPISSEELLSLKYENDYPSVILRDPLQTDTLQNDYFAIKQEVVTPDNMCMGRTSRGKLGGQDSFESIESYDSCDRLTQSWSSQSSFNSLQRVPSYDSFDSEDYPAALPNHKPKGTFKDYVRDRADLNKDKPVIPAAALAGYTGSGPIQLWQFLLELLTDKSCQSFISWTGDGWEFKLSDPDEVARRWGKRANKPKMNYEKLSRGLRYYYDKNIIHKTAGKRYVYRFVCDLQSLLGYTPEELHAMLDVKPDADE
Strand,E-score
CGCCCACC,0.273
CGGAACAA,0.252
ACCGATAC,0.262
ATTACGCA,0.254
CGACGGTC,0.328
CCGACGCG,0.282
CTATAATA,0.27
ACCGCGGA,0.269

# Single results of other studies
Structure (SMILES),target,test,conditions,how to read,endpoint,value
CCOc1nc(NC(=O)Cc2cc(OC)ccc2OC)cc(N)c1C#N,"Tyrosine-protein kinase Fer (FER, Homo sapiens, UniProt P16591)","enzyme activity, inhibitor",0.5 µM,baseline: control,remaining activity,94.1%
